Measurements pooled from the literature.
Lines come from different studies, so protocols differ. Values joined by “and” are separate records of one study, mostly repeats; a detail may differ. pIC50, pKd: −log10 of the molar value.
Spike glycoprotein: Spike glycoprotein (Severe acute respiratory syndrome coronavirus 2, UniProt P0DTC2)

Substance = CC(C)(C)NCc1ccc(Nc2ccnc3cc(Cl)ccc23)cc1O; tested on = SARS-CoV-2; test = cytopathic effect; system = USA_WA1/2020; conditions = round 2, 5-point; quantity = efficacy; value = 85.1%
Substance = O=C(/C=C/c1ccc(O)c(O)c1)OC[C@H]1O[C@@H](OCCc2ccc(O)c(O)c2)[C@H](O)[C@@H](O)[C@@H]1O; tested on = Spike glycoprotein; test = binding, BLI; quantity = pKd; value = 4.96
Substance = Nc1ncnc2c([C@@H]3N[C@H](CO)[C@@H](O)[C@H]3O)c[nH]c12; tested on = Middle East respiratory syndrome-related coronavirus; test = viral replication; system = Vero C1008, Jordan N3; conditions = 3.1 µM; quantity = inhibition; value = 18.3%
Substance = GLEAPFLYL; test = AIM; system = peptide, CD8+ T cells from PBMC, human donors; conditions = HLA-A*02:01 restricted, unit not given; how to read = relative to: positive over tested donors; quantity = frequency of responding donors; value = 33
Substance = CCc1c(C(=O)C(N)=O)c2c(OCC(=O)O)cccc2n1Cc1ccccc1; tested on = C2C12; conditions = 10 µM, added: PB venom; how to read = relative to: venom alone; quantity = viability difference; value = 38.8%
Substance = CCN(CC)Cc1cc(Nc2ccnc3cc(Cl)ccc23)ccc1O; tested on = SARS-CoV-2; test = cytopathic effect, cell-based CPE; system = USA_WA1/2020; conditions = round 2, 5-point dilution; quantity = AC50; value = 5.62 µM
Substance = CC[C@H](C)[C@H](NC(=O)[C@H](CC(C)C)NC(=O)[C@H](Cc1c[nH]c2ccccc12)NC(=O)[C@H](CCC(N)=O)NC(=O)[C@@H](NC(=O)[C@H](Cc1ccccc1)NC(=O)[C@H](C)NC(=O)[C@H](CCCCNC(=O)COCCOCCNC(=O)COCCOCCNC(=O)CC[C@H](NC(=O)CCCCCCCCCCCCCCCCCCC(=O)O)C(=O)O)NC(=O)[C@H](CCC(N)=O)NC(=O)[C@H](C)NC(=O)[C@@H](NC(=O)[C@H](CCCCN)NC(=O)[C@H](CC(=O)O)NC(=O)[C@H](CC(C)C)NC(=O)C(C)(C)NC(=O)[C@@H](NC(=O)[C@H](CO)NC(=O)[C@H](Cc1ccc(O)cc1)NC(=O)[C@H](CC(=O)O)NC(=O)[C@H](CO)NC(=O)[C@@H](NC(=O)[C@H](Cc1ccccc1)NC(=O)[C@@H](NC(=O)CNC(=O)[C@H](CCC(=O)O)NC(=O)C(C)(C)NC(=O)[C@@H](N)Cc1ccc(O)cc1)[C@@H](C)O)[C@@H](C)O)[C@@H](C)CC)[C@@H](C)CC)C(C)C)C(=O)N[C@@H](C)C(=O)NCC(=O)NCC(=O)N1CCC[C@H]1C(=O)N[C@@H](CO)C(=O)N[C@@H](CO)C(=O)NCC(=O)N[C@@H](C)C(=O)N1CCC[C@H]1C(=O)N1CCC[C@H]1C(=O)N1CCC[C@H]1C(=O)N[C@@H](CO)C(N)=O; test = refers to: blood glucose ≤70 mg/dL; system = healthy subjects; conditions = 1.5 mg, multiple ascending dose; quantity = subjects with hypoglycaemia; value = 0%
Substance = O=C1c2c(O)cccc2C([C@@H]2O[C@H](CO)[C@@H](O)[C@H](O)[C@H]2O)c2cc(CO)cc(O)c21 (stereo partly shown); tested on = Spike glycoprotein; test = binding, BLI; quantity = pKd; value = 4.29
Substance = VWHVNNATNKATYKP; tested on = human CD4 T cells; test = AIM; system = peptide; quantity = responding donors; value = 8%
Substance = Cn1cnc(Cn2c(=O)[nH]/c(=N\c3cc4cn(C)nc4cc3Cl)n(Cc3cc(F)c(F)cc3F)c2=O)n1; system = human, normal renal function; conditions = oral, 375 mg, treatment-related dry mouth, Moderate severity; quantity = patients with adverse event; value = 0%
Substance = CNC(=O)[C@@H](NC(=O)[C@H](CC(C)C)[C@H](O)C(=O)NO)C(C)(C)C; tested on = snake venom metalloproteinase; test = proteolytic activity, inhibitor; system = Daboia russelii, venom KA; conditions = added: azocasein; quantity = pIC50; value = 5.72 and 5.76 and 5.65
Substance = GPQNQRNAPRITF; test = AIM; system = peptide, CD8+ T cells from PBMC, human donors; conditions = HLA-B*07:02 restricted, unit not given; how to read = relative to: positive over tested donors; quantity = frequency of responding donors; value = 33
Substance = CC(Nc1nc(N2CCN(CCN)CC2)nc2ccccc12)c1ccccc1 (stereo not shown); tested on = SARS-CoV-2; test = cytopathic effect, cell-based CPE; system = USA_WA1/2020; conditions = round 2, 5-point dilution; quantity = efficacy; value = 52.2%

For quick reference, copied from above:
Substance = CC[C@H](C)[C@H](NC(=O)[C@H](CC(C)C)NC(=O)[C@H](Cc1c[nH]c2ccccc12)NC(=O)[C@H](CCC(N)=O)NC(=O)[C@@H](NC(=O)[C@H](Cc1ccccc1)NC(=O)[C@H](C)NC(=O)[C@H](CCCCNC(=O)COCCOCCNC(=O)COCCOCCNC(=O)CC[C@H](NC(=O)CCCCCCCCCCCCCCCCCCC(=O)O)C(=O)O)NC(=O)[C@H](CCC(N)=O)NC(=O)[C@H](C)NC(=O)[C@@H](NC(=O)[C@H](CCCCN)NC(=O)[C@H](CC(=O)O)NC(=O)[C@H](CC(C)C)NC(=O)C(C)(C)NC(=O)[C@@H](NC(=O)[C@H](CO)NC(=O)[C@H](Cc1ccc(O)cc1)NC(=O)[C@H](CC(=O)O)NC(=O)[C@H](CO)NC(=O)[C@@H](NC(=O)[C@H](Cc1ccccc1)NC(=O)[C@@H](NC(=O)CNC(=O)[C@H](CCC(=O)O)NC(=O)C(C)(C)NC(=O)[C@@H](N)Cc1ccc(O)cc1)[C@@H](C)O)[C@@H](C)O)[C@@H](C)CC)[C@@H](C)CC)C(C)C)C(=O)N[C@@H](C)C(=O)NCC(=O)NCC(=O)N1CCC[C@H]1C(=O)N[C@@H](CO)C(=O)N[C@@H](CO)C(=O)NCC(=O)N[C@@H](C)C(=O)N1CCC[C@H]1C(=O)N1CCC[C@H]1C(=O)N1CCC[C@H]1C(=O)N[C@@H](CO)C(N)=O; test = refers to: blood glucose ≤70 mg/dL; system = healthy subjects; conditions = 1.5 mg, multiple ascending dose; quantity = subjects with hypoglycaemia; value = 0%
Substance = O=C1c2c(O)cccc2C([C@@H]2O[C@H](CO)[C@@H](O)[C@H](O)[C@H]2O)c2cc(CO)cc(O)c21 (stereo partly shown); tested on = Spike glycoprotein; test = binding, BLI; quantity = pKd; value = 4.29
